{"data": "Results gathered from unrelated publications", "cell line": "HepG2", "note": "Compare with care: the assays were run in different laboratories."}
{"Substance": "COc1ccc2ncc(F)c(C[C@H](O)[C@H]3OC[C@H](NCc4cc5c(nn4)OCCS5)CO3)c2n1", "test": "cytotoxicity", "setting": "24 h", "quantity": "IC50", "value": "> 128 µg/mL"}
{"Substance": "COc1ccc2c(c1)c1c(n2CO)CN2CCc3cc(OCc4cccc(F)c4)c(OC)cc3C2C1 (stereo not shown)", "test": "cell growth or viability", "setting": "20 µM, 24 h", "quantity": "viability", "value": "95.7%"}
{"Substance": "COc1ccc2nccc(CC[C@H]3OC[C@H](NC(=O)c4ccc(Cl)c(Cl)c4)CO3)c2c1", "test": "cytotoxicity", "setting": "24 h", "quantity": "IC50", "value": "6.25 µg/mL"}
{"Substance": "O=C1C(NCCc2ccc(O)c(Br)c2)=CC2=NCCc3c[nH]c1c32", "test": "cell growth or viability, MTT", "setting": "72 h", "quantity": "CC50", "value": "4 µM"}
{"Substance": "C[C@@H]1C(=O)O[C@@H](C)/C=C/C=C\\[C@@H](C)[C@@H]2C=C[C@@H]3C[C@@]4(C)O[C@H]4[C@@H](C)[C@H]3[C@@H]2C(=O)C(Cl)(Cl)C1=O", "test": "cell growth or viability, MTT", "setting": "5 days", "quantity": "IC50", "value": "> 0.93 µg/mL"}
{"Substance": "COc1ccc2nccc(CC[C@H]3OC[C@H](NC(=O)c4ccc(C(C)(C)C)cc4)CO3)c2c1", "test": "cytotoxicity", "setting": "24 h", "quantity": "IC50", "value": "1.31 µg/mL"}
{"Substance": "colistin", "test": "cytotoxicity, MTT", "setting": "48 h", "quantity": "IC50", "value": "> 1280 µg/mL"}
{"Substance": "C[N+](C)(CI)CCO", "test": "cell viability", "test system": "glucose medium", "setting": "24 h, mitochondrial toxicity", "quantity": "IC50", "value": "> 150 µM"}
{"Substance": "CCCCCCCC[C@@H]1NC(=O)[C@@H](Cc2ccccc2)NC(=O)[C@H](CCN)NC(=O)[C@@H](NC(=O)[C@H](CCN)NC(=O)[C@@H](NC(=O)[C@H](CCN)NC(=O)CCCCCCC)[C@@H](C)O)CCNC(=O)[C@H]([C@@H](C)O)NC(=O)[C@H](CCN)NC(=O)[C@H](CCN)NC1=O", "test": "cell growth or viability, MTT", "setting": "48 h", "quantity": "IC50", "value": "~1280 µg/mL"}
{"Substance": "c1cc2nc(c1)-c1cccc(n1)CCCc1ccc(cc1)OCCCCCCOc1ccc(cc1)CCC2", "test": "cell growth or viability, MTT", "setting": "100 µM, 24 h", "quantity": "viability", "value": "83.7%"}
{"Substance": "CC1=C[C@@H](C)[C@H]2[C@@H]3C(=O)C(Cl)(Cl)C(=O)[C@H](C)C(=O)O[C@@H](C)/C=C/C=C\\[C@@H](C)[C@@H]3C=C[C@@H]2C1", "test": "cell growth or viability, MTT", "setting": "5 days", "quantity": "IC50", "value": "> 0.37 µg/mL"}
{"Substance": "COc1ccc2ncc(F)c(C[C@H](O)[C@H]3OC[C@H](NCc4ccc5c(n4)NC(=O)CO5)CO3)c2c1", "test": "cytotoxicity", "setting": "24 h", "quantity": "IC50", "value": "> 128 µg/mL"}
{"Substance": "CC[C@H](C)[C@@H](C(=O)N[C@@H](Cc1ccc(O)cc1)C(=O)N1CCC[C@H]1C(=O)N[C@@H](Cc1ccccc1)C(=O)O)n1cc(C(Cc2ccc(O)cc2)NC(=O)[C@@H](NC(=O)[C@H](CCCNC(=N)N)NC(=O)[C@@H](N)CC(=O)O)C(C)C)nn1 (stereo partly shown)", "test": "cell growth or viability, MTT", "setting": "25 µM, 24 h", "quantity": "viability", "value": "82.8%"}
{"note": "A few entries again:"}
{"Substance": "colistin", "test": "cytotoxicity, MTT", "setting": "48 h", "quantity": "IC50", "value": "> 1280 µg/mL"}
{"Substance": "C[N+](C)(CI)CCO", "test": "cell viability", "test system": "glucose medium", "setting": "24 h, mitochondrial toxicity", "quantity": "IC50", "value": "> 150 µM"}
